Assay results collected from several papers.
Compare with care: the assays were run in different laboratories. Values joined by “and” are separate records of one study, mostly repeats; a detail may differ. ± gives the spread as reported.
HDAC8: Histone deacetylase 8 (HDAC8, Homo sapiens, UniProt Q9BY41)
Sequence of UniProt Q9BY41 (whole entry, looked up): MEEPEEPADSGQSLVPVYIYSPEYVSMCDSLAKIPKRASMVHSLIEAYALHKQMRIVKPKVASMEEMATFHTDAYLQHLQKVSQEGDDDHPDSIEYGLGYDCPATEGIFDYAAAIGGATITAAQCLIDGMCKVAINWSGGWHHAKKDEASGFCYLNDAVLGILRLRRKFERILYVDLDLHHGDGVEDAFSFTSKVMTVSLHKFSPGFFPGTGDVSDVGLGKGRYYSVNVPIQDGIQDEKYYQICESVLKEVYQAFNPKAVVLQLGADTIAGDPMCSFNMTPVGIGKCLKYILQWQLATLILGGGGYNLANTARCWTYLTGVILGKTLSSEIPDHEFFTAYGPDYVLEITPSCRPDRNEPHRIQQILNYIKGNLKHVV
PTGS2: Prostaglandin G/H synthase 2 (PTGS2, Homo sapiens, UniProt P35354)
Sequence of UniProt P35354 (whole entry, looked up): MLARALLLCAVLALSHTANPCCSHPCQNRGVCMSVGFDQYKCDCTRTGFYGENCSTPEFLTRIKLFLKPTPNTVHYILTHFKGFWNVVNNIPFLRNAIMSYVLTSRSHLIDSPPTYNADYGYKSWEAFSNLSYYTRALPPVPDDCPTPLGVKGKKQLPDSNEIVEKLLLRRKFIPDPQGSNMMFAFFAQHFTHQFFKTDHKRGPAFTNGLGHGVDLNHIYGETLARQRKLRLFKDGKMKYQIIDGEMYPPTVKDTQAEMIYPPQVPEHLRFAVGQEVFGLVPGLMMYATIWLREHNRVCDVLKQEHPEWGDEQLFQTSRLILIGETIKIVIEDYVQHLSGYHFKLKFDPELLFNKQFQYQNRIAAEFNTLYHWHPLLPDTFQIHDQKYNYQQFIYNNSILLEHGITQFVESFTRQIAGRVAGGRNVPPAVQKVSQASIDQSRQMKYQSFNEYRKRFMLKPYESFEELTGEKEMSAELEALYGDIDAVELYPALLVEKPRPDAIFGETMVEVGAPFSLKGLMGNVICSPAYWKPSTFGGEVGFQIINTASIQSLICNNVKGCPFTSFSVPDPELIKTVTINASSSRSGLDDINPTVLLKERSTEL
P4HB: Protein disulfide-isomerase (P4HB, Homo sapiens, UniProt P07237)
Sequence of UniProt P07237 (whole entry, looked up): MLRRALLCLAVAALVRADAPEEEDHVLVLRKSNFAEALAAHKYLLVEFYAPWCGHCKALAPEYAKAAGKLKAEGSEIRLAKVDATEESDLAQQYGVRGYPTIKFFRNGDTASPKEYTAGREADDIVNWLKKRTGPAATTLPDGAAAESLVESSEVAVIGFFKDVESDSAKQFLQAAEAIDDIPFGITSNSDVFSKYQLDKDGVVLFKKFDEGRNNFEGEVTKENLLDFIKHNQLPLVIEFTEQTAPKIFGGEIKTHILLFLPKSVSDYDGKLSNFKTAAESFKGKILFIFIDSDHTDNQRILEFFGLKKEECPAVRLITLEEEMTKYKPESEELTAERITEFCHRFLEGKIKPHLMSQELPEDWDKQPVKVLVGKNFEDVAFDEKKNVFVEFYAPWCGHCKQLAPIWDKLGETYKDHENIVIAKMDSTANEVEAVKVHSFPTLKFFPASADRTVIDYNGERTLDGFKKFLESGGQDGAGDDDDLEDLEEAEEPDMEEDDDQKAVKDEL
CPL: CPL (Toxoplasma gondii, UniProt Q6DMN0)
Sequence of UniProt P51878 (whole entry, looked up): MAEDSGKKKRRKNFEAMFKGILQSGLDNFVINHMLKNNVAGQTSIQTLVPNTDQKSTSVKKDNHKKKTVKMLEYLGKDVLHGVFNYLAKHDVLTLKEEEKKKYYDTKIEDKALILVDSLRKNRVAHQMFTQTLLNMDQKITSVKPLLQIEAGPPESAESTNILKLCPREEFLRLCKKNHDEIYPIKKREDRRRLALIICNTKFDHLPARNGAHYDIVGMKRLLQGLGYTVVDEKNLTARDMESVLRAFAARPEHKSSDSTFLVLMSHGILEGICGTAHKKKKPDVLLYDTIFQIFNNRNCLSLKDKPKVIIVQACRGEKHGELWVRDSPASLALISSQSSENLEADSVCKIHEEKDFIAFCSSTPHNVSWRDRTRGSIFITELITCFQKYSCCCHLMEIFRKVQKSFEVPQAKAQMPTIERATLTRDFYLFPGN
Sequence of UniProt Q02936 (whole entry, looked up): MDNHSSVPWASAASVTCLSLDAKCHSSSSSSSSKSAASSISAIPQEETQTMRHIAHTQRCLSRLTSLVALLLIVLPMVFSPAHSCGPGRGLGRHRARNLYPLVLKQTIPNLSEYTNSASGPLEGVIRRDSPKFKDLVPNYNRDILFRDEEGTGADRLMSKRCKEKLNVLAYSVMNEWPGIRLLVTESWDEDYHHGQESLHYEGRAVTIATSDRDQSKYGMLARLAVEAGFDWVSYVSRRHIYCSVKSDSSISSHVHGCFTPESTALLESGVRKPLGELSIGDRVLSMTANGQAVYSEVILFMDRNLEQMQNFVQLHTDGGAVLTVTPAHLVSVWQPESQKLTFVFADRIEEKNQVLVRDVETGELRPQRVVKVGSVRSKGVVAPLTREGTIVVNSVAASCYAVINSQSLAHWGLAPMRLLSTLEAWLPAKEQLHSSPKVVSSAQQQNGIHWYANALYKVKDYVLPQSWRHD
Sequence of UniProt O00206 (whole entry, looked up): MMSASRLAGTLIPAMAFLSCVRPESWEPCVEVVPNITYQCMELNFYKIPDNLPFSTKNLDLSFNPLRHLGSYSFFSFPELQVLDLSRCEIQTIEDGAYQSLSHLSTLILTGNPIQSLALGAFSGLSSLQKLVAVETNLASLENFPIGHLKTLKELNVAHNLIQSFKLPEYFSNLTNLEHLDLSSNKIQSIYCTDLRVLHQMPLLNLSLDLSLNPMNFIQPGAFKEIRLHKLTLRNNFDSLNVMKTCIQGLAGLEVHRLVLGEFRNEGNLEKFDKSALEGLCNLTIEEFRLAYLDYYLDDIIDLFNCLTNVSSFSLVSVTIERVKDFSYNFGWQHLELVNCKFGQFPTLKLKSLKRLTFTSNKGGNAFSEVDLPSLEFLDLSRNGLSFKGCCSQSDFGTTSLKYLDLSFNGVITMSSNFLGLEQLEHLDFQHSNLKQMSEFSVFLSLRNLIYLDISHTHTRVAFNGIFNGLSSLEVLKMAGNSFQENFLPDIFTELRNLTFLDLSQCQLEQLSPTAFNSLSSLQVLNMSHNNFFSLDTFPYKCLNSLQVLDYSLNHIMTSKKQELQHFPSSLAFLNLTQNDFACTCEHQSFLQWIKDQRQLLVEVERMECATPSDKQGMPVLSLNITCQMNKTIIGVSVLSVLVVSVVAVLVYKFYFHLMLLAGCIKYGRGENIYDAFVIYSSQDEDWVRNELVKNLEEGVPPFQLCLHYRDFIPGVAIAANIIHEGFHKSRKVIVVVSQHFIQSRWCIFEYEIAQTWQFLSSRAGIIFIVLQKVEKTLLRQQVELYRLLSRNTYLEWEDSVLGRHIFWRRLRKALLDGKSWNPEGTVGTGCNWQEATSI
Sequence of UniProt O00748 (whole entry, looked up): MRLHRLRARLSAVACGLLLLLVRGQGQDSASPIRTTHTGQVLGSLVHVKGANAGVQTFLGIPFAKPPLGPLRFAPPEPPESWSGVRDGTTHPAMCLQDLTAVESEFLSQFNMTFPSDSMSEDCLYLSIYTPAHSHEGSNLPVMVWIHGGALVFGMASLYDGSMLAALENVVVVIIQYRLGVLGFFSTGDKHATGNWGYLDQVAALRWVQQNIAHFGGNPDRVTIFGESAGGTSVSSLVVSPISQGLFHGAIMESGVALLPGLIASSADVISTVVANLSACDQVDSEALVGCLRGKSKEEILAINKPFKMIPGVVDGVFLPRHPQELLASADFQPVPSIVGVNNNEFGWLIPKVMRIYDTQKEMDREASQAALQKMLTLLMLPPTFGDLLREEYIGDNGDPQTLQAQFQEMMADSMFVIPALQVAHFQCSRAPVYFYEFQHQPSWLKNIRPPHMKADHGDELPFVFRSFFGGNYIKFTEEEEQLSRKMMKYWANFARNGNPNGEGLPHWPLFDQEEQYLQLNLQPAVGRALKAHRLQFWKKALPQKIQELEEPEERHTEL
Sequence of UniProt Q15910 (whole entry, looked up): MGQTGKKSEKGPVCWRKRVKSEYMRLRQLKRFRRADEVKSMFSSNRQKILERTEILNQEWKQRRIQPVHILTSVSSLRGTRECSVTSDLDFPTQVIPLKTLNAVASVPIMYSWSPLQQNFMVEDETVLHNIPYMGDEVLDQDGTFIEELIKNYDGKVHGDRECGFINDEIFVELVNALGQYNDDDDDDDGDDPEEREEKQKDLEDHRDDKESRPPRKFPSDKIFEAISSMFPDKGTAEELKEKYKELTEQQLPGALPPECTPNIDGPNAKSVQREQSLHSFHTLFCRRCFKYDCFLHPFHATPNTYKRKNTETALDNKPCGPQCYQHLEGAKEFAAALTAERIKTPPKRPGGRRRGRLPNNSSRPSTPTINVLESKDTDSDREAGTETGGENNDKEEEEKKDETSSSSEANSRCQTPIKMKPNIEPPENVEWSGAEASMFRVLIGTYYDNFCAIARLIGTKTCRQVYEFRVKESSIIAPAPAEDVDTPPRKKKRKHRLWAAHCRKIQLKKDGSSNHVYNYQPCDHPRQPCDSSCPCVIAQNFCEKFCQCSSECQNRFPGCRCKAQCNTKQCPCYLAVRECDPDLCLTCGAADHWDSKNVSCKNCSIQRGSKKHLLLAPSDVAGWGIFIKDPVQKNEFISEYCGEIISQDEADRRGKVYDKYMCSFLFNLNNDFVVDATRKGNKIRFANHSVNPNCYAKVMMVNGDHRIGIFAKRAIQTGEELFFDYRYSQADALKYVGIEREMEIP
Sequence of UniProt Q9NVV5 (whole entry, looked up): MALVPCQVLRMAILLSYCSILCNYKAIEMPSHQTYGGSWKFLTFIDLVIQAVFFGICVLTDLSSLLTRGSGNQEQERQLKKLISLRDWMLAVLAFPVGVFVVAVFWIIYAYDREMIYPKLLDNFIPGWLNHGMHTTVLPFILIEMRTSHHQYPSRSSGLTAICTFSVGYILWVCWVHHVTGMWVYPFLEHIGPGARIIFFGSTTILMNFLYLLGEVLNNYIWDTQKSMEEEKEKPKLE
Sequence of UniProt Q9GZZ1 (whole entry, looked up): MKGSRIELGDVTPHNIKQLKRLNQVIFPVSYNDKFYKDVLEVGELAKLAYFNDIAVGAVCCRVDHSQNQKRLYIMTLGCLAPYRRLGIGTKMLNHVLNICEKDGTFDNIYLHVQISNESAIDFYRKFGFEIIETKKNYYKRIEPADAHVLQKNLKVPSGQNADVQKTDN

N[C@H](C(=O)N1CCCC1)C1CCN(c2nccc3c(-c4ncc(Cl)cc4Cl)cccc23)CC1  IC50 (Protein-arginine deiminase type-2 (PADI2, Homo sapiens, UniProt Q9Y2J8); enzyme activity, inhibitor, absorbance): 3.09 µM
CC(=O)NC1C(OC2OC(CC(O)C3OC(n4ccc(=O)[nH]c4=O)C(O)C3O)C(O)C(O)C2NC(=O)COCc2ccc(N3CCC(Oc4ccc(OC(F)(F)F)cc4)CC3)cc2)OC(CO)C(O)C1O (centres unmarked)  IC50 (UDP-N-acetylglucosamine--dolichyl-phosphate N-acetylglucosaminephosphotransferase (Homo sapiens, UniProt Q9H3H5); enzyme activity, inhibitor): 0.12 µM
CC(C)(C)c1ccc(C(=O)N2CCCN(c3nc4ccccc4s3)CC2)s1  IC50 (hh, C-terminal autoprocessing domain (Drosophila melanogaster, UniProt Q02936); FRET): 0.3 µM
CCC(C)SSc1ncc[nH]1 (centres unmarked)  IC50 (genome polyprotein, 2A protease (Enterovirus D68, UniProt A0A097BW19); enzyme activity, inhibitor, FRET; with 4 mM DTT): > 60 µM
O=C(CCCCCCC(=O)Nc1cccc(N=Nc2ccccc2)c1)NO  IC50 (HDAC8; enzyme activity, inhibitor; cis isomer, irradiated): 0.087 ± 0.016 µM
CC(=O)N[C@@H](CC(C)C)C(=O)N[C@@H](CCC(=O)O)C(=O)N[C@@H](CO)C(=O)N[C@@H](CC(=O)O)C(=O)CCl  IC50 (Caspase-5 (CASP5, Homo sapiens, UniProt P51878); enzyme activity, inhibitor, fluorescence): 2.03 µM and 2 µM
Cc1[nH]c2ccccc2c1C(c1cccc(Br)c1)C(C#N)C#N (centres unmarked)  IC50 (Cocaine esterase (CES2, Homo sapiens, UniProt O00748); enzyme activity, inhibitor; human liver microsomes; pH 7.4, 37 °C, with: fluorescein diacetate): 2.89 ± 0.3 µM
COc1cccc(/C=C/C(=O)C(c2ccccc2)c2ccccc2)c1OC  IC50 (PTGS2; enzyme activity, inhibitor, ELISA): 15.4 µM
CN(C)c1ccc(C(=O)N2CCN3C(=O)N(OC(=O)N4CCC(CCc5ccc(Cl)cc5)CC4)C(=O)C3C2)cc1 (centres unmarked)  IC50 (Androgen-induced gene 1 protein (Homo sapiens, UniProt Q9NVV5)): 0.57 ± 0.14 µM
COC(=O)C1CN1S(=O)(=O)c1cccc2ccccc12 (centres unmarked)  IC50 (P4HB; enzyme activity, inhibitor, absorbance; pH 7.6): 1.2 µM
COc1cc(N2CCC(N3CCN(C)CC3)CC2)ccc1Nc1ncc(Cl)c(Nc2ccccc2S(=O)(=O)C(C)C)n1  IC50 (Lysine--tRNA ligase (Plasmodium falciparum, UniProt Q8IDJ8); enzyme activity, inhibitor, absorbance): > 50 µM
CC[C@H](C)[C@@H]1NC(=O)[C@H](CC(C)C)NC(=O)[C@@](C)(NC(=O)[C@H](Cc2ccccc2)NC(=O)[C@H](Cc2ccc(O)cc2)NC(=O)[C@H](C)NC(=O)[C@@H](N)[C@@H](C)O)CCCC=CCCC[C@@](C)(C(=O)NCC(=O)N[C@@H](CCCNC(=N)N)C(=O)N[C@@H](Cc2c[nH]c3ccccc23)C(N)=O)NC(=O)[C@H](CC(C)C)NC1=O  IC50 (Gag-Pol polyprotein, integrase (gag-pol, Human immunodeficiency virus type 1 group M subtype B, UniProt P04585); integrase 3'-processing, inhibitor): 22 ± 3 µM
CC[C@H](C)[C@H](NC(=O)[C@@H](N)CC(=O)O)C(=O)N[C@H]1CSC(=O)[C@H](Cc2ccccc2)NC(=O)[C@H](Cc2ccc(O)cc2)NC(=O)[C@H](C)NC(=O)[C@H](CC(N)=O)NC1=O  IC50 (Accessory gene regulator protein C (Staphylococcus aureus, UniProt O33590)): 0.0366 µM
C[C@H](NC(=O)[C@H](CCC(=O)O)NC(=O)[C@H](CO)NC(=O)[C@H](C)NC(=O)[C@H](CO)NC(=O)CSCCNC(=O)CCNC(=O)[C@H](O)C(C)(C)COP(=O)(O)OP(=O)(O)OC[C@H]1O[C@@H](n2cnc3c(N)ncnc32)[C@H](O)[C@@H]1OP(=O)(O)O)C(N)=O  IC50 (N-alpha-acetyltransferase 50 (Homo sapiens, UniProt Q9GZZ1); enzyme activity, inhibitor): 11 µM
CC[C@H](C)[C@@H]1NC(=O)[C@H](C(C)C)NC(=O)[C@H](C(C)C)NC(=O)[C@H](CC(C)C)NC(=O)C[C@@H](C(=O)N[C@@H](Cc2c[nH]c3ccccc23)C(=O)N[C@@H](CC(N)=O)C(=O)N[C@@H](C)C(=O)N2CCC[C@H]2C(=O)NCC(=O)N[C@@H](Cc2c[nH]c3ccccc23)C(=O)N[C@@H](Cc2ccccc2)C(=O)O)NC(=O)[C@H](C)NC(=O)[C@H](CCC(N)=O)NC(=O)[C@H](C(C)C)NC1=O  IC50 (Toll-like receptor 4 (TLR4, Homo sapiens, UniProt O00206); LPS binding, antagonist, ELISA): 0.753 ± 0.015 µM
COC(=O)C=CCCC(NC(=O)c1ccncc1C(=O)O)C(=O)NC(C(=O)N1CC(=O)CC1C(=O)NC(C(=O)NC(C(N)=O)C1CCCCC1)C1CCCCC1)C(C)(C)C (centres unmarked)  IC50 (Coagulation factor XIII A chain (F13A1, Homo sapiens, UniProt P00488); transamidase activity, inhibitor; with: dansylcadaverine, N,N-dimethylcasein): 0.024 ± 0.0015 µM
CC(C)CCN(Cc1cccnc1)c1nc(C#N)nc(N2CCOCC2)n1  IC50 (CPL; enzyme activity, inhibitor, Z-L-R-AMC hydrolysis fluorescence): 0.039 µM
COc1cccc(/C=C/C(=O)c2ccc(C)o2)c1OC  IC50 (PTGS2; enzyme activity, inhibitor, ELISA): 56.2 µM
C=CCOC(=O)NCCCC[C@H](NC(=O)[C@H](Cc1ccc(O)cc1)NC(=O)CNC(=O)CNC(=O)[C@@H](NC(=O)[C@H](CO)NC(=O)[C@@H]1CCCN1C(=O)[C@H](C)NC(=O)[C@H](CO)NC(=O)[C@H](CCSC(F)(F)F)NC(=O)[C@H](CCCNC(=N)N)NC(=O)[C@H](C)NC(=O)[C@H](C)NC(=O)[C@H](CCCCN)NC(C)=O)[C@@H](C)O)C(=O)NN  IC50 (Histone-lysine N-methyltransferase EZH2 (EZH2, Homo sapiens, UniProt Q15910); enzyme activity, inhibitor, radiometric): 11 µM
CC[C@@H]1C(=O)N(C)c2cnc(Nc3ccc(C(=O)NCCCC[C@H](NC(=O)COCCOCCNC(=O)COCCOCCNC(=O)COCCOCCNC(=O)COCCOCCNC(=O)[C@@H](NC(=O)[C@H](CO)NC(=O)[C@H](Cc4cncn4CCCCCCCCc4ccccc4)NC(=O)[C@H](CC(C)C)NC(=O)[C@@H]4CCCN4C(C)=O)[C@@H](C)OP(=O)(O)O)C(N)=O)cc3OC)nc2N1C1CCCC1  IC50 (Dual specificity protein kinase CLK2 (CLK2, Homo sapiens, UniProt P49760); enzyme activity, inhibitor): 0.06 µM
OCC[S+](CCO)C[C@@H](O)[C@@H](O)CO  IC50 (Sucrase-isomaltase, intestinal (Si, Rattus norvegicus, UniProt P23739); isomaltase activity; rat intestinal brush border vesicles; 30 min, pH 6.0, 37 °C, with: substrate 7.4 mM): > 296 µM
O=[N+]([O-])c1cccc(-c2cc(C3CC4CCC3N4)cnc2F)c1 (racemic)  IC50 (Neuronal acetylcholine receptor subunit alpha-7 (Chrna7, Rattus norvegicus, UniProt Q05941); ion current, two-electrode voltage clamp; oocytes): 23 µM
COC(=O)C1CN1S(=O)(=O)c1ccc(C(C)(C)C)cc1 (centres unmarked)  IC50 (P4HB; insulin reduction, inhibitor, insulin turbidity; full-length PDIA1): 0.6 ± 0.03 µM
CC[C@H](C)[C@H](NC(=O)[C@H](Cc1ccccc1)NC(=O)[C@H](CN)NC(=O)[C@H](CCCNC(=N)N)NC(=O)[C@H](Cc1ccccc1)NC(=O)[C@H](Cc1ccccc1)NC(=O)[C@H](CCN)NC(=O)[C@H](CO)NC(=O)[C@H](CC(C)C)NC(=O)[C@H](CCCNC(=N)N)NC(=O)[C@H](CCSC)NC(=O)[C@H](C)N)C(=O)N[C@@H](CC(C)C)C(=O)N[C@@H](CCC(N)=O)C(=O)N[C@@H](CCCNC(=N)N)C(=O)N[C@@H](CCCCN)C(=O)N[C@@H](CCCCN)C(=O)O  IC50 (histidine kinase ComD (Streptococcus pneumoniae serotype 4, UniProt A0A0H2US84); Streptococcus pneumoniae cells, Streptococcus pneumoniae): > 1 µM
O=C(CCCCCCC(=O)Nc1ccc(N=Nc2ccccc2)cc1)NO  IC50 (HDAC8; enzyme activity, inhibitor; trans isomer): 1.61 ± 0.423 µM
CC[C@H](C)[C@H](NC(=O)[C@H](CC(N)=O)NC(=O)[C@H](CC(N)=O)NC(=O)[C@@H](N)CCCNC(N)=O)C(=O)N1C[C@@H](n2cc(-c3ccc(N)cc3)nn2)C[C@H]1C(=O)N[C@H](Cc1c[nH]c2ccccc12)C(=O)N[C@@H](CO)C(N)=O  IC50 (Envelope glycoprotein gp160, gp120 (env, Human immunodeficiency virus type 1 group M subtype B, UniProt P35961); HIV-1): > 100 µM
NCCCC[C@H](N)C(=O)N[C@@H](Cc1ccc(O)cc1)C(=O)N[C@@H](CC(N)=O)C(=O)N1CCC[C@H]1C(=O)N[C@H]1CSC(=O)[C@H](Cc2ccccc2)NC(=O)[C@H](Cc2ccc(O)cc2)NC(=O)[C@H](CC(N)=O)NC(=O)[C@H](CO)NC1=O  IC50 (Accessory gene regulator protein C (Staphylococcus epidermidis, UniProt O86861)): 0.00047 µM
CC[C@H](C)[C@@H]1NC(=O)[C@H](CC(N)=O)NC(=O)[C@H](Cc2ccc(O)cc2)NC(=O)[C@H](Cc2c[nH]c3ccccc23)NC(=O)[C@H](C)NC(=O)[C@@H](N)CSSC[C@@H]2NC(=O)[C@@H](CSC[C@@H](C(=O)N[C@H]3C(=O)N[C@@H](CC(C)C)C(=O)N[C@H]4C(=O)N[C@@H](C(C)C)C(=O)N[C@@H](CCC(=O)O)C(=O)N[C@@H](CS[C@H]3C)C(=O)N[C@@H](CCSC)C(=O)N3CCC[C@H]3C(=O)N[C@@H](CO)C(=O)N[C@H](C(=O)N[C@@H](CC(N)=O)C(=O)O)CS[C@H]4C)NC(=O)[C@H](Cc3ccc(O)cc3)NC(=O)[C@H](C)NC(=O)CNC(=O)[C@H](CCCCN)NC(=O)[C@H](CC(N)=O)NC(=O)CNC(=O)[C@H](CC(C)C)NC(=O)[C@H](CCCNC(=N)N)NC2=O)NC1=O  IC50 (PBP1b (Escherichia coli); transglycosylase activity, inhibitor; with: lipid II 4 µM): 9.6 ± 0.4 µM
CC(C)CN(Cc1ccc(F)cc1)c1nc(C#N)nc(N2CCOCC2)n1  IC50 (CPL; enzyme activity, inhibitor, Z-L-R-AMC hydrolysis fluorescence): 0.067 µM
O=C1c2ccccc2[Se](=O)N1c1ccccc1 (centres unmarked)  IC50 (Histone deacetylase 3 (HDAC3, Homo sapiens, UniProt O15379); enzyme activity, inhibitor, fluorescence): 4.18 µM
N#Cc1nc(N2CCOCC2)nc(N(Cc2ccc(F)cc2)CC2CCNCC2)n1  IC50 (CPL; enzyme activity, inhibitor, Z-L-R-AMC hydrolysis fluorescence): 1.2 µM
CC(C)P(=S)(NP(=[Se])(C(C)C)C(C)C)C(C)C  IC50 (Alpha-amylase (Bacillus subtilis, UniProt P00691); enzyme activity, inhibitor, absorbance; pH 6.9): 376 µM

A few entries again:
COc1cccc(/C=C/C(=O)c2ccc(C)o2)c1OC  IC50 (PTGS2; enzyme activity, inhibitor, ELISA): 56.2 µM
C=CCOC(=O)NCCCC[C@H](NC(=O)[C@H](Cc1ccc(O)cc1)NC(=O)CNC(=O)CNC(=O)[C@@H](NC(=O)[C@H](CO)NC(=O)[C@@H]1CCCN1C(=O)[C@H](C)NC(=O)[C@H](CO)NC(=O)[C@H](CCSC(F)(F)F)NC(=O)[C@H](CCCNC(=N)N)NC(=O)[C@H](C)NC(=O)[C@H](C)NC(=O)[C@H](CCCCN)NC(C)=O)[C@@H](C)O)C(=O)NN  IC50 (Histone-lysine N-methyltransferase EZH2 (EZH2, Homo sapiens, UniProt Q15910); enzyme activity, inhibitor, radiometric): 11 µM
CC[C@@H]1C(=O)N(C)c2cnc(Nc3ccc(C(=O)NCCCC[C@H](NC(=O)COCCOCCNC(=O)COCCOCCNC(=O)COCCOCCNC(=O)COCCOCCNC(=O)[C@@H](NC(=O)[C@H](CO)NC(=O)[C@H](Cc4cncn4CCCCCCCCc4ccccc4)NC(=O)[C@H](CC(C)C)NC(=O)[C@@H]4CCCN4C(C)=O)[C@@H](C)OP(=O)(O)O)C(N)=O)cc3OC)nc2N1C1CCCC1  IC50 (Dual specificity protein kinase CLK2 (CLK2, Homo sapiens, UniProt P49760); enzyme activity, inhibitor): 0.06 µM
OCC[S+](CCO)C[C@@H](O)[C@@H](O)CO  IC50 (Sucrase-isomaltase, intestinal (Si, Rattus norvegicus, UniProt P23739); isomaltase activity; rat intestinal brush border vesicles; 30 min, pH 6.0, 37 °C, with: substrate 7.4 mM): > 296 µM
